Measured values of several laboratories.
Every numbered part comes from another study and shows a few of its results, in no order.
UniProt P11802, sequence (whole entry, looked up): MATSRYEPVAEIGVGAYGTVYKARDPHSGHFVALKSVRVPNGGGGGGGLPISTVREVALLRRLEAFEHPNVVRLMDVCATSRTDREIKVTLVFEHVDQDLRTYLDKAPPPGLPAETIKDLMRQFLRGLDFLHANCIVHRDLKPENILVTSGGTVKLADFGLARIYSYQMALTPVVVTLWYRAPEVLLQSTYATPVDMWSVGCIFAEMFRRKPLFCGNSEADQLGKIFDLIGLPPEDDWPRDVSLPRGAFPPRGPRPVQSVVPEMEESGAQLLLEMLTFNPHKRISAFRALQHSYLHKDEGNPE
UniProt Q16644, sequence (whole entry, looked up): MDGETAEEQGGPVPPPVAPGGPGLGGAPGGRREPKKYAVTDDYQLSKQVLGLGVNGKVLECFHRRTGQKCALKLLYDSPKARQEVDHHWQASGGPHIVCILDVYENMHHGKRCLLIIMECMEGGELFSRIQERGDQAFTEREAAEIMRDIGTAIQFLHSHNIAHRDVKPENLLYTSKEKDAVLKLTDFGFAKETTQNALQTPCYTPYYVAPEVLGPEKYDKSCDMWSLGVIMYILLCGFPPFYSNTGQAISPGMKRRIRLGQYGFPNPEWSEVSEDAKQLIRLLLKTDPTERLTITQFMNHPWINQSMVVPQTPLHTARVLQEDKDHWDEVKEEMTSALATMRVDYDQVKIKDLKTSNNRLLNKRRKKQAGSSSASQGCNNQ
UniProt Q9BYP7, sequence (whole entry, looked up): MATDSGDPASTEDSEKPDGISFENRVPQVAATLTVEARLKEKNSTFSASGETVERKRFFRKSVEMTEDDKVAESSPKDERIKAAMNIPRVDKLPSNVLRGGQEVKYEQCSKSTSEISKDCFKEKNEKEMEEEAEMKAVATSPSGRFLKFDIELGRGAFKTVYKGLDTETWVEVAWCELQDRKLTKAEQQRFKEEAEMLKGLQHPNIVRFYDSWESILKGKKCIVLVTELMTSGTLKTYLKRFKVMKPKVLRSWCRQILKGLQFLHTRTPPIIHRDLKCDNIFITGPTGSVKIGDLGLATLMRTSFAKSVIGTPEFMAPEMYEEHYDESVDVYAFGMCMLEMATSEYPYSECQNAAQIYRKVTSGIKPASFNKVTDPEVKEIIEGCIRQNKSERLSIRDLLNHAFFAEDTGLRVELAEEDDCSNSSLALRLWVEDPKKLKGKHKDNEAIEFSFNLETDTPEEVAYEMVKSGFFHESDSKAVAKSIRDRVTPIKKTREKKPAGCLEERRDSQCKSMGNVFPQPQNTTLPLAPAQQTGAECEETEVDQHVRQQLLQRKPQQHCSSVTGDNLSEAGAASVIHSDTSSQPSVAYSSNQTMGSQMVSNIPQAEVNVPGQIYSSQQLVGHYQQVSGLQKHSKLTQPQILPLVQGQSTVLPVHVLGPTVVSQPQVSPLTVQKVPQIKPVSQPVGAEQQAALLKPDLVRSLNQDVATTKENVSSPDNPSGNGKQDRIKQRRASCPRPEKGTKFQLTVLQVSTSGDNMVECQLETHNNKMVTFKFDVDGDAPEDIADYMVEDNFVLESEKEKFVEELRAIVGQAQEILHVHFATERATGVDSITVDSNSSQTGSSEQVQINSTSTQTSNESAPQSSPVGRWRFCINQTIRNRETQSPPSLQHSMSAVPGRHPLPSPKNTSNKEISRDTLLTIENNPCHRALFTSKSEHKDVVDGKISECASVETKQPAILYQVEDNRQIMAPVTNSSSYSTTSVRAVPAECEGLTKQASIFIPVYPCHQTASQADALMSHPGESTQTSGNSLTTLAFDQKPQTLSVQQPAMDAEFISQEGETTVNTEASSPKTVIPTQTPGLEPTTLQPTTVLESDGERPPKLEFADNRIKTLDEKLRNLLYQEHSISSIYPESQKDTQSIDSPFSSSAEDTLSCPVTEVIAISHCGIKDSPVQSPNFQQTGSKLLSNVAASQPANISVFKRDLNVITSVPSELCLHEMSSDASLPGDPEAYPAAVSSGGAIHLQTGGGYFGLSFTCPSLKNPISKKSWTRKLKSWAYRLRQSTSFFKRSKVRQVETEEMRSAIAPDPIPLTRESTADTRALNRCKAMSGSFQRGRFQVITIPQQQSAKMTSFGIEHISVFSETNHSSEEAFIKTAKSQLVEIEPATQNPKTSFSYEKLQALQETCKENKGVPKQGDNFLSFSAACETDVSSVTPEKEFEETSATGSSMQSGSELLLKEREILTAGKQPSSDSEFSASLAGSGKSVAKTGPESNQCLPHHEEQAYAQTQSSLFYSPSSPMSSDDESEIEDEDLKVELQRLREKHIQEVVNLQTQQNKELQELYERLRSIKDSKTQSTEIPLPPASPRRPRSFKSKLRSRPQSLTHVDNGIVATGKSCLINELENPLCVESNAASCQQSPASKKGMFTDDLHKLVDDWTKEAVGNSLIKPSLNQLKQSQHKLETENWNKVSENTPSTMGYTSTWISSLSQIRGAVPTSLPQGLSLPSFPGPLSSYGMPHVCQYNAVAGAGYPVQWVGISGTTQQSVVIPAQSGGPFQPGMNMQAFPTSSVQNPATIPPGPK
UniProt Q13554, sequence (whole entry, looked up): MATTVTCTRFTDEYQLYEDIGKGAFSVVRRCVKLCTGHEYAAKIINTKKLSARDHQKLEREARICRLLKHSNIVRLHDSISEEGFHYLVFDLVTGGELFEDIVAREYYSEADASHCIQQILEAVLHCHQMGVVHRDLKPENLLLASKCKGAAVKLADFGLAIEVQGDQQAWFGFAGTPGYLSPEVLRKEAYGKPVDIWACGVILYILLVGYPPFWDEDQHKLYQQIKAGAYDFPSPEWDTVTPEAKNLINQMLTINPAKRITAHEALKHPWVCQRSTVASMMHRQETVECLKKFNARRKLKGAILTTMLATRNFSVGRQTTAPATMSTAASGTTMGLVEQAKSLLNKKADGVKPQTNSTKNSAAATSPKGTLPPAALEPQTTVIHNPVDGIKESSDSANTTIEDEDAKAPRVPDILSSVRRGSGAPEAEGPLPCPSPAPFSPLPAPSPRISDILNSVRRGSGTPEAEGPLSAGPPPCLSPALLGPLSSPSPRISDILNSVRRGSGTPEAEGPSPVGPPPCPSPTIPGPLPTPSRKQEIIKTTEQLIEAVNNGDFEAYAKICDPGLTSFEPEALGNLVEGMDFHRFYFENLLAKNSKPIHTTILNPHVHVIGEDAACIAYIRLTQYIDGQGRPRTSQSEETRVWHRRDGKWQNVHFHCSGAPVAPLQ
UniProt Q16816, sequence (whole entry, looked up): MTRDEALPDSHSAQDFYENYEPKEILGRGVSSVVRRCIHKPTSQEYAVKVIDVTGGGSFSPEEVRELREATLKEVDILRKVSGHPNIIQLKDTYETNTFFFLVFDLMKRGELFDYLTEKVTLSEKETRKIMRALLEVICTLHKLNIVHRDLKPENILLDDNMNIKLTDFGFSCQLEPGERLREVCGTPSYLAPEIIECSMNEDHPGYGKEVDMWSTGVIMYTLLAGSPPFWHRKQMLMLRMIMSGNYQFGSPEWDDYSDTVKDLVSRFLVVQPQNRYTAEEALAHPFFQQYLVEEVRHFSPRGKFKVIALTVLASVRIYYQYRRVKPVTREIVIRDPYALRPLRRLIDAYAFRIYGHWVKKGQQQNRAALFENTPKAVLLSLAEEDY
UniProt P30530, sequence (whole entry, looked up): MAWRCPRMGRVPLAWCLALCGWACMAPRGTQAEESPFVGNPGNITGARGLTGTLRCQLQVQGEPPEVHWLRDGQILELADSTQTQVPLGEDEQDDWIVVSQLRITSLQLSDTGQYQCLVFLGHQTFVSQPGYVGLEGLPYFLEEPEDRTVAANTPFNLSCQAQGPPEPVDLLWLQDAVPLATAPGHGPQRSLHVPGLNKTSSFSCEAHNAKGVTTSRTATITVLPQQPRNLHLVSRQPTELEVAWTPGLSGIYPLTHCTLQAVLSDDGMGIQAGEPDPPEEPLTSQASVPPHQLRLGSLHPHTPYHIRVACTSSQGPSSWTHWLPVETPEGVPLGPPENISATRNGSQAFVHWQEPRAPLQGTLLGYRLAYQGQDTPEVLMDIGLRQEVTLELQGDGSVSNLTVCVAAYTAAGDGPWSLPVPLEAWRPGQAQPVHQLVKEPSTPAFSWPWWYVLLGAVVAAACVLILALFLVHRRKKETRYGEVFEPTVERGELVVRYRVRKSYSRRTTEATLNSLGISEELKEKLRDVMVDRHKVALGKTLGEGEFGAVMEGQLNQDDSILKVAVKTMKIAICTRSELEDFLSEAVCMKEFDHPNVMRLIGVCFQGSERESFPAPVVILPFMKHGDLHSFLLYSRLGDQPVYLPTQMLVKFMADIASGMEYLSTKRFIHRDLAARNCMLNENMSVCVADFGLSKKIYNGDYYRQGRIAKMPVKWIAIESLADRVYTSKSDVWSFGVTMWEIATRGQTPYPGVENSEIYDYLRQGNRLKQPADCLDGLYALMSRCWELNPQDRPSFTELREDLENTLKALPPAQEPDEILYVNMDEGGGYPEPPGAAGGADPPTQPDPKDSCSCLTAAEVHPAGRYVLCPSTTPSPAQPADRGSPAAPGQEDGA
UniProt P49841, sequence (whole entry, looked up): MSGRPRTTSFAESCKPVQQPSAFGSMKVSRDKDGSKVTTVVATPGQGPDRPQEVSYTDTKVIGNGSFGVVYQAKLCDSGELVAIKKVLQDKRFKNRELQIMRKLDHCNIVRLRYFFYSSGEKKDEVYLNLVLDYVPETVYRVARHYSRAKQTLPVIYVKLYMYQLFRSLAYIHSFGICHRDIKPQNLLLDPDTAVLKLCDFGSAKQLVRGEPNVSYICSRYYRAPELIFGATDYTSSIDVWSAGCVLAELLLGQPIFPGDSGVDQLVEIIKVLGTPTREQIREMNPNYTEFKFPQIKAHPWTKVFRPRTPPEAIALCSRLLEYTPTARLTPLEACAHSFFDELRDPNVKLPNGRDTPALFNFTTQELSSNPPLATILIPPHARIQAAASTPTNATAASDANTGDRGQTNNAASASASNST

Sample 1 — technique: RNAcompete; form: RNA; sample: in vitro; tested at: 20 nM; setting: 7-mer, probes averaged, single round; reference: mean of 7-mers; direction: higher = stronger binding
Target: PABPC1L2, full length, GST fusion (mouse, UniProt A0ABA7IW68)
Target sequence (chain): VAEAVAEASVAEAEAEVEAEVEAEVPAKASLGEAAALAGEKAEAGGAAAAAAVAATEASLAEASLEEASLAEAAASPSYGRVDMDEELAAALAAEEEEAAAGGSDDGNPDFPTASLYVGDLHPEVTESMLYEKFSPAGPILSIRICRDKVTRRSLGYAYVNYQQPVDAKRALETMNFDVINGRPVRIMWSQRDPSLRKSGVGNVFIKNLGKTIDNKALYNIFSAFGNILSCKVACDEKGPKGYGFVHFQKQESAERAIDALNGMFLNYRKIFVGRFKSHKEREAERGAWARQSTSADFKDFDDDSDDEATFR
Sequence | 7-mer Z-score
GCAGGUC | -0.0536
GUGGCCA | -0.132
CAACCAA | 0.459
GGCGACC | 0.0841
UGCAACA | 0.017
AAAGUAA | 1.61
CGAUAAC | -0.115
AGAUUGA | -0.186

Sample 2 — technique: protein-binding microarray; form: double-stranded DNA, one strand shown; sample: in vitro; tested at: 940 nM top; setting: 60-bp whole probe; added: salmon DNA 0.4 mg/ml; reference: random background probes; direction: higher = stronger binding; all sequences stand within: GCCTAGCAC … GTCTTGATTCGCTTGACGCTGCTG
Target: Interferon regulatory factor 5, full length, phosphomimetic (IRF5, Homo sapiens, UniProt Q13568-2, residues 1-514, S451D/S453D/S456D/S462D)
Sequence | fitted relative affinity
TCAGCTCTGGCACCTCTAACTGTGCTA | -0.0933 z-score
TCACCTCTCTGTCCCCCTTTGTGCTAG | 1.32 z-score
GACGATATCAGTATCGAGAAGTGCTAG | 1.62 z-score
CTAGATCTCAGTTTCGATTAGTGCTAG | 8.35 z-score
ATTTGTCCCTATTTAAGAGAGTGCTAG | 0.563 z-score
GACGAACTGAGACGGGAGACGTGCTAG | -0.609 z-score
GACGGCCTCCTTTTCCTGACGTGCTAG | 0.369 z-score
TTAGGTCTCCTTTTCCTTGAGTGCTAG | 0.0764 z-score

Sample 3 — read-out: enzyme activity; action: inhibitor; tested at: 0.5 µM; reference: control
SMILES: NC(=O)c1ccc(-c2nc(-c3ccc4c(c3)OCCO4)c(-c3ccccn3)[nH]2)cc1
target | remaining activity
PHKG1 (Homo sapiens, UniProt Q16816) | 87.2%
MAP4K4 (Homo sapiens, UniProt O95819) | 78.6%
STK17A (Homo sapiens, UniProt Q9UEE5) | 98.2%
CAMK2B (Homo sapiens, UniProt Q13554) | 103%
AXL (Homo sapiens, UniProt P30530) | 95.1%
RPS6KA6 (Homo sapiens, UniProt Q9UK32) | 102%
HIPK4 (Homo sapiens, UniProt Q8NE63) | 103%
SRMS (Homo sapiens, UniProt Q9H3Y6) | 89.2%
MAPKAPK3 (Homo sapiens, UniProt Q16644) | 96.2%
TSSK2 (Homo sapiens, UniProt Q96PF2) | 109%
Cyclin-dependent kinase 4, with cyclin D3 (CDK4, Homo sapiens, UniProt P11802) | 94.1%

Sample 4 — read-out: cell-free assay; technique: competition with immobilised ligand; tested at: 1 µM
SMILES: NS(=O)(=O)c1cc(NC(=O)C2(c3ccccc3Cl)CC2)ccc1Oc1cccc(Cl)c1
target | remaining binding [%]
GSK3B (Homo sapiens, UniProt P49841) | 100
WNK3 (Homo sapiens, UniProt Q9BYP7) | 78
FLT3 (Homo sapiens, UniProt P36888, D835H) | 47
MET (Homo sapiens, UniProt P08581, M1250T) | 68
FLT3 (Homo sapiens, UniProt P36888, D835V/ITD) | 100

Excerpt of the above (sample 2):
Sequence | fitted relative affinity
GACGATATCAGTATCGAGAAGTGCTAG | 1.62 z-score
ATTTGTCCCTATTTAAGAGAGTGCTAG | 0.563 z-score
TCAGCTCTGGCACCTCTAACTGTGCTA | -0.0933 z-score
